# Experimental data from different studies.
# A part holds a random share of what one study measured.
# Chain of UniProt Q9HAZ1 (whole entry, looked up): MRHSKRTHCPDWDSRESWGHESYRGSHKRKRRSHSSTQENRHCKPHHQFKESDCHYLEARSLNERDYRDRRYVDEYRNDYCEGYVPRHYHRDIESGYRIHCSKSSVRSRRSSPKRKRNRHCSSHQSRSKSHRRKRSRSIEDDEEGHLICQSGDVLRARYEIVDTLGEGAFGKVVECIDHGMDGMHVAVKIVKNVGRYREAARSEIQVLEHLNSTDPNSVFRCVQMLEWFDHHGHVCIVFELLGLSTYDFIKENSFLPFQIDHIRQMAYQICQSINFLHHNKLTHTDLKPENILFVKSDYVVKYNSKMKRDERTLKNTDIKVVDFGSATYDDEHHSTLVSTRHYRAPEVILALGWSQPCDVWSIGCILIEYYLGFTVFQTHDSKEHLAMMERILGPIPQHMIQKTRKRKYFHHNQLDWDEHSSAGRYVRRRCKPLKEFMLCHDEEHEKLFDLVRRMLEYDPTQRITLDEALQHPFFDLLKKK
# Chain of UniProt P51956 (whole entry, looked up): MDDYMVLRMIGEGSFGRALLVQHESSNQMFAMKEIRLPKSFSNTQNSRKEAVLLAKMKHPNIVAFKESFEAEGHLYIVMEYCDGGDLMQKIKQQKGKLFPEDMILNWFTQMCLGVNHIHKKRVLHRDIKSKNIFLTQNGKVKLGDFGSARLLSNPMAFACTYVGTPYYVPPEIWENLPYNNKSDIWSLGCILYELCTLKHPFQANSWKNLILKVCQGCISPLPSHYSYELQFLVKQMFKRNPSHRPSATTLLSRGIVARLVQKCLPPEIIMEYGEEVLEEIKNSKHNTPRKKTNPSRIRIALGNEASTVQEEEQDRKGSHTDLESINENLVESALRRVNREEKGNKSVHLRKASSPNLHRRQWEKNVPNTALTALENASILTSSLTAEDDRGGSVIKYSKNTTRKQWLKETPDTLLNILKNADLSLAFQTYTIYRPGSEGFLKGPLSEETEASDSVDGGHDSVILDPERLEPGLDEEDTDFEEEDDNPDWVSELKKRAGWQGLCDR
# Chain of UniProt P49761 (whole entry, looked up): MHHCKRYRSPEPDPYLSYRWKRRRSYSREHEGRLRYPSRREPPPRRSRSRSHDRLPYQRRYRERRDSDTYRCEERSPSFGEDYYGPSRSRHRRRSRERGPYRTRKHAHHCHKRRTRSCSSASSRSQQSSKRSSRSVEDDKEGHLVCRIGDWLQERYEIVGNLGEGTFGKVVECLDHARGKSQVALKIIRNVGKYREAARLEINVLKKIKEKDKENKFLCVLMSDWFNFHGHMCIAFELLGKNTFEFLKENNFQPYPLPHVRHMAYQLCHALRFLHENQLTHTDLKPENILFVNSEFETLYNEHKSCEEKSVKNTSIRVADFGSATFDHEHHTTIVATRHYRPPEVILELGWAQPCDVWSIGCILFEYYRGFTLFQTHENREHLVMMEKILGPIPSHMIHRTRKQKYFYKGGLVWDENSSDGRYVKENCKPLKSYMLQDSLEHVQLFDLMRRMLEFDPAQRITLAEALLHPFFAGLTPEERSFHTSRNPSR
# Chain of UniProt Q15759 (whole entry, looked up): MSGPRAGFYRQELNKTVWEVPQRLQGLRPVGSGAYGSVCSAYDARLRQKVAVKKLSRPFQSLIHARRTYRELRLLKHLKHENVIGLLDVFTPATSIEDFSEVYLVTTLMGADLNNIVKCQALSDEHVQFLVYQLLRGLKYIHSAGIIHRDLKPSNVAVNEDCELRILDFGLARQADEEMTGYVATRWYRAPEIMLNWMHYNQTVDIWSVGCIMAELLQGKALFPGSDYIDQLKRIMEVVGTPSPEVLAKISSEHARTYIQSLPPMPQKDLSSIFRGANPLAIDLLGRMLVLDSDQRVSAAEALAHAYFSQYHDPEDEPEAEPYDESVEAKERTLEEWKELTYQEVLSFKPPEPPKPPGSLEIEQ

# Block 1
# Target: DNA polymerase theta, ATPase domain (POLQ, Homo sapiens, UniProt O75417)
# Chain of UniProt O75417 (whole entry, unmodified, looked up): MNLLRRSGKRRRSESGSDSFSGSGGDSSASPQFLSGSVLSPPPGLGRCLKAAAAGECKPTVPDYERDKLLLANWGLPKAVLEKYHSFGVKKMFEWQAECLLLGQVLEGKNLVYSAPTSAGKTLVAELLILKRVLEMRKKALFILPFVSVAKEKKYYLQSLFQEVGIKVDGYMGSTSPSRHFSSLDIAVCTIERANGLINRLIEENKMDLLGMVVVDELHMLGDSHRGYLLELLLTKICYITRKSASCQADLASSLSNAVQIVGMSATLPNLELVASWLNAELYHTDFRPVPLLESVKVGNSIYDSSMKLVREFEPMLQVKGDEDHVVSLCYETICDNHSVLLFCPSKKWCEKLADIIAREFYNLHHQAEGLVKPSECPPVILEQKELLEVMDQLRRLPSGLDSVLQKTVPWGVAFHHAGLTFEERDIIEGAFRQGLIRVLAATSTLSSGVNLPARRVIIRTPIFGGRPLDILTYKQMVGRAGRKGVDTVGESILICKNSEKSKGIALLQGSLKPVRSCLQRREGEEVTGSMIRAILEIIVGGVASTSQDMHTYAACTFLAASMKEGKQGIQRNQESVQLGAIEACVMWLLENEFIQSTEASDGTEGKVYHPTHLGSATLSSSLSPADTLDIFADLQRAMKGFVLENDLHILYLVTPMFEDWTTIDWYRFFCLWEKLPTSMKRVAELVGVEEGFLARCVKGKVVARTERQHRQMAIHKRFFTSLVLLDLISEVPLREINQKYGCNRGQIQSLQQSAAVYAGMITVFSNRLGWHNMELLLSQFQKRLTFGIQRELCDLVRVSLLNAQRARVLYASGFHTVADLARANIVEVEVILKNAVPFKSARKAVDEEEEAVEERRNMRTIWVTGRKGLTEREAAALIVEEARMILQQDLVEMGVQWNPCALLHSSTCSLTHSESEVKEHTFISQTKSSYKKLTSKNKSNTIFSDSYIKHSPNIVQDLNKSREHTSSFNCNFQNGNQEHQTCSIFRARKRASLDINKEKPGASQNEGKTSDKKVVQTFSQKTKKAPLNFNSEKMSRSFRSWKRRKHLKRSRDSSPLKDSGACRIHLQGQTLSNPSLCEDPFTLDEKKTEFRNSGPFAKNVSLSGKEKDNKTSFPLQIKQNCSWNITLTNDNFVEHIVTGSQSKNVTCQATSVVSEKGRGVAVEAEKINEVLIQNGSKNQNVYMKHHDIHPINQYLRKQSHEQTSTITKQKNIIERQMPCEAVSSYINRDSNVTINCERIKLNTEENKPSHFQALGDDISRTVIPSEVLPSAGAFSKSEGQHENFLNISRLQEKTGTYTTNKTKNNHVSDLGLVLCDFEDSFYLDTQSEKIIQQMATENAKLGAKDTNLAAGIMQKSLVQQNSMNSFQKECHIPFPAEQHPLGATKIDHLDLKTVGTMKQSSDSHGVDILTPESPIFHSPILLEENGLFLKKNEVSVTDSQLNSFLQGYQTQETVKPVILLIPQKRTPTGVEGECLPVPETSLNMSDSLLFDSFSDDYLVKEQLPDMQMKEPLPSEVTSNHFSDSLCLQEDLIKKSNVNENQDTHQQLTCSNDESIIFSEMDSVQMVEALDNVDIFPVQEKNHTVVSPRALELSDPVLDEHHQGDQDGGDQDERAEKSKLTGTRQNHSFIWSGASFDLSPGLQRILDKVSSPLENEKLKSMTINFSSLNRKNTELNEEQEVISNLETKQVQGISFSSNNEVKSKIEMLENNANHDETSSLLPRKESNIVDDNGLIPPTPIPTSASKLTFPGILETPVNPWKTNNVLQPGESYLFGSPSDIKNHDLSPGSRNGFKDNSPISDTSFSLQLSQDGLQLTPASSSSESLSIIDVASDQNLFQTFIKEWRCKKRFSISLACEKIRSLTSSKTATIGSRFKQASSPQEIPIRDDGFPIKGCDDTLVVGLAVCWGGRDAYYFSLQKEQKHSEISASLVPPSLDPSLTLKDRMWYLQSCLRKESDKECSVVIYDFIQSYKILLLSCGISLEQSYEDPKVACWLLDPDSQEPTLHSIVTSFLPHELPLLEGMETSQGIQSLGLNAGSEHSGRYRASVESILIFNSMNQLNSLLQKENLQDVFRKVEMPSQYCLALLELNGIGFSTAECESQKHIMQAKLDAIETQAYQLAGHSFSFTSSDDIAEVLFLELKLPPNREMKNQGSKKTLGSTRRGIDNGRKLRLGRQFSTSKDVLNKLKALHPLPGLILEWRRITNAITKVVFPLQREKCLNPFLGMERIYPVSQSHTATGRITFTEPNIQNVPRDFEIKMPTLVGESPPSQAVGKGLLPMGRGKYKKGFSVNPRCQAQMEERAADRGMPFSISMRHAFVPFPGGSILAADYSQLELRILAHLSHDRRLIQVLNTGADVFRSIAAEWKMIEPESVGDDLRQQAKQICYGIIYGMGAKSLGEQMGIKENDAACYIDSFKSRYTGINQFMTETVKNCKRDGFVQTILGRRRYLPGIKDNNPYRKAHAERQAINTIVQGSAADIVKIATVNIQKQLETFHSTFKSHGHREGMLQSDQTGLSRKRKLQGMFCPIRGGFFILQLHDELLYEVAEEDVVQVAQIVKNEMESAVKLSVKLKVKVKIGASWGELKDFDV
# Read-out: enzyme activity
# Mode: inhibitor
# Concentration: 77 µM
# Reference: untreated
SMILES,remaining activity [%]
CCN1C(=O)C=CC1=O,109
O=C1NC(=O)C(c2c[nH]c3ccccc23)=C1c1c[nH]c2ccccc12,119
O=C(Cn1ccnc1[N+](=O)[O-])NCCO,96.7
N#C/C(=C1/SC[C@@H](c2ccc(Cl)cc2Cl)S1)n1ccnc1,102
Cc1ccc(NC2=CC(=O)c3sc(C)nc3C2=O)cc1,113
C=CC1=C(C)c2cc3[nH]c(cc4nc(cc5[nH]c(cc1n2)c(C)c5CCC(=O)O)C(CCC(=O)O)=C4C)c(C)c3C=C,106
O=C(O)c1cccnc1Nc1cccc(C(F)(F)F)c1,72.3
O=C1CN2Cc3c(ccc(Cl)c3Cl)N=C2N1,86.3
CC1(C)CCC=[N+]1[O-],103

# Block 2
# Host: mouse
# Sample: microsomes or S9
# Concentration: 2 µM
# Time: 0.5 h
Structure (SMILES),remaining compound [%]
Cc1cc(-c2cc(=O)n(C)n2C(F)F)c(F)cc1Cl,3.48
CC(=O)N1CCN(C(=O)Cn2nc(C)c(C)c2C)CC(O)C1 (centres unmarked),24.7
CC(C)CCN(C)C1CCN(S(=O)(=O)c2ccc(C3CCCCC3)cc2)CC1,71.7
N[C@@H](CC(=O)N1CCCN(Cc2ccccc2)CC1)Cc1cc(F)c(F)cc1F,1.88
CCC(CC)C(=O)N1CCN(S(=O)(=O)c2ccccc2)CC1,5.75
CCN(CC(O)COc1ccccc1)C(=O)c1cccc(-c2ccc(O)cc2)c1 (centres unmarked),52.9
O=C1CC(c2ccccc2Cl)c2cc3c(cc2N1)CCC3 (centres unmarked),5.9
Cc1ccc(NC(=O)NCC(C(C)C)N(C)C)cc1 (centres unmarked),0.053
Cc1ccc2c(c1C)NC(=O)CC2c1c(F)cccc1Cl (centres unmarked),4.14
CC(Cc1nc2c(s1)Cc1ccccc1-2)n1cc(Cl)cn1 (centres unmarked),0.0197
Cc1cc(C(O)CN2CCN(c3ccc(F)cc3F)CC2)c(C)s1 (centres unmarked),83.8
Cc1cn(C)c(CC(=O)NCCCN2CCC(Cc3ccccc3)CC2)c1C(=O)O,95.5
COc1cc(=O)n2c(c1C(=O)NCc1cccc(C(F)(F)F)c1)CCCC2,34.3

# Block 3
# Target: Calcium/calmodulin-dependent protein kinase type II subunit alpha (CAMK2A, Homo sapiens, UniProt Q9UQM7)
# Chain of UniProt Q9UQM7 (whole entry, looked up): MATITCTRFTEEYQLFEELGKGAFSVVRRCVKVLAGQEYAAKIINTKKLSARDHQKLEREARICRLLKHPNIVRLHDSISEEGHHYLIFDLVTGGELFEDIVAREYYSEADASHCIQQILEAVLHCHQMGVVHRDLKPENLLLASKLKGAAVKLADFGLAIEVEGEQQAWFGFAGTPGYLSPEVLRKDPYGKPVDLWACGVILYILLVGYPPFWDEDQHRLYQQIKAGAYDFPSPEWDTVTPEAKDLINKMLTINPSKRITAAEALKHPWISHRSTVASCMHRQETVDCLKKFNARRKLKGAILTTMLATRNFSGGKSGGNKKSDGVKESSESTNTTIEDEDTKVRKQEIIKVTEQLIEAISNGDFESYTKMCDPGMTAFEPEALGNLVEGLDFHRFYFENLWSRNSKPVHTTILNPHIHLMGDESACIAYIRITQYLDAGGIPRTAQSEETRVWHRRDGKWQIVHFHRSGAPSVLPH
# Read-out: enzyme activity
# Mode: inhibitor
# Concentration: 10 µM
SMILES,inhibition [%]
Nc1ncnc2c1ncn2[C@@H]1C[C@H](CO)[C@@H](O)[C@H]1O,1
COc1cccc(OC)c1C(=O)N[C@@H]1C(=O)N2[C@@H]1SC(C)(C)[C@@H]2C(=O)O,-1
COC1=CC(=O)C=C(OC)C1=O,-3
C=CCC(C)C(=O)O (centres unmarked),7
COc1ccc(OC)cc1,19
CC(C(=O)O)c1ccc2c(c1)CC(=O)c1ccccc1S2 (centres unmarked),-5
O=c1ccn([C@@H]2O[C@H](CO)[C@@H](O)[C@H]2O)c(=O)[nH]1,12
CN(C)CCOC(c1ccc(Cl)cc1)c1ccccn1 (centres unmarked),-10
COC(=O)C1=CO[C@@H](O[C@@H]2O[C@H](CO)[C@@H](O)[C@H](O)[C@H]2O)[C@@H]2[C@H](C)O[C@@H](O)C[C@H]12,-15
C[C@@H]1O[C@@H](O[C@H]2[C@H](Oc3cc(O)c4c(c3)O[C@H](c3ccc(O)c(O)c3)CC4=O)O[C@H](CO)[C@@H](O)[C@@H]2O)[C@H](O)[C@H](O)[C@H]1O,-16
Cn1nnc(-c2ccc(-c3ccc(N4C[C@H](COP(=O)(O)O)OC4=O)cc3F)cn2)n1,-1
O=Cc1ccccc1O[C@@H]1O[C@H](CO)[C@@H](O)[C@H](O)[C@H]1O,-28

# Block 4
# Structure (SMILES): O=C1Cc2c([nH]c3ccc(Br)cc23)-c2ccccc2N1
# Read-out: enzyme activity
# Mode: inhibitor
# Concentration: 0.5 µM
# Reference: control
target,remaining activity [%]
"Ribosomal protein S6 kinase alpha-4 (RPS6KA4, Homo sapiens, UniProt O75676)",108
"Dual specificity protein kinase CLK4 (CLK4, Homo sapiens, UniProt Q9HAZ1)",91.1
"RAC-beta serine/threonine-protein kinase (AKT2, Homo sapiens, UniProt P31751)",104
"Calcium/calmodulin-dependent protein kinase type 1B (PNCK, Homo sapiens, UniProt Q6P2M8)",99.6
"Serine/threonine-protein kinase Nek3 (NEK3, Homo sapiens, UniProt P51956)",96.2
"Mitogen-activated protein kinase 14 (MAPK14, Homo sapiens, UniProt Q16539)",93
"Dual specificity protein kinase CLK3 (CLK3, Homo sapiens, UniProt P49761)",99.3
"Mitogen-activated protein kinase 11 (MAPK11, Homo sapiens, UniProt Q15759)",104
"Cyclin-dependent kinase 1, with cyclin A (CDK1, Homo sapiens, UniProt P06493)",88.5
"Dual specificity mitogen-activated protein kinase kinase 1 (MAP2K1, Homo sapiens, UniProt Q02750)",84.3
"Serine/threonine-protein kinase tousled-like 2 (TLK2, Homo sapiens, UniProt Q86UE8)",99.4
"MAP/microtubule affinity-regulating kinase 4 (MARK4, Homo sapiens, UniProt Q96L34)",60.2
"Misshapen-like kinase 1 (MINK1, Homo sapiens, UniProt Q8N4C8)",29.6

# For quick reference, copied from above (block 3):
SMILES,inhibition [%]
C=CCC(C)C(=O)O (centres unmarked),7
COc1ccc(OC)cc1,19
CC(C(=O)O)c1ccc2c(c1)CC(=O)c1ccccc1S2 (centres unmarked),-5
O=c1ccn([C@@H]2O[C@H](CO)[C@@H](O)[C@H]2O)c(=O)[nH]1,12
